Experimental data from different studies.
Protocols differ between the studies behind these lines.
Cell line: MDA-MB-231

Compound = O=C(Cc1ccccc1)Nc1nc2ccccc2n1Cc1ccccc1; assay = qPCR, measured: VEGF; conditions = 10 µM, 8 h, normoxia; measurement = mRNA level; value = decreased
Compound = CCCCCCCCCCCCCCCOC(=O)/C=C/c1cc(O)c(O)c(OC)c1; assay = AO-PI flow cytometry; conditions = IC50, 24 h; measurement = early apoptotic cells; value = 39.7%
Compound = C=CC(OC(C)=O)c1cc(OC)c(OC(C)=O)c(OC)c1 (stereo not shown); assay = Western blot; conditions = IC50, 24 h; scale = relative to: untreated; measurement = Bcl-xL protein decrease; value = 30 to 50%
Compound = CC1OC2OC3C4=C(OC3(C)C12O)C(=O)c1c(O)cccc1C4=O (stereo not shown); assay = annexin V/PI flow cytometry; conditions = 8 µg/mL, 48 h; measurement = early apoptotic cells; value = 60.6%
Compound = Cc1ccc(C(C)C)cc1.O=C(N=P(c1ccccc1)(c1ccccc1)c1ccccc1)c1ccccn1.[Cl-].[Cl][Ru+]; assay = Transwell Geltrex invasion; conditions = IC20, 24 h; scale = relative to: untreated; measurement = invasion reduction; value = 85.2%
Compound = C=CC(OC(C)=O)c1ccc(OC(C)=O)c(OC)c1 (stereo not shown); assay = Western blot; conditions = IC50, 24 h; scale = relative to: untreated; measurement = Bcl-2 protein decrease; value = 40 to 50%
Compound = COc1ccc(C=CC(=O)c2cccc(O)c2)cc1; assay = cell growth, MTT; conditions = 100 µM, 48 h; scale = relative to: DMSO; measurement = inhibition; value = 99.8%
Compound = CC1(C)C(=CC=C2CCCC(C=CC3=[N+](CCCCCC(=O)O)c4ccccc4C3(C)C)=C2c2ccccc2)N(CCCCCC(=O)O)c2ccccc21; system = serum-free medium; conditions = 20 µM, with: 1 mM DMOG hypoxia; scale = relative to: no DMOG; measurement = cellular uptake; value = increased
Compound = CN[C@@H](C)C(=O)N[C@H]1CN(C(=O)Cc2ccccc2)CC[C@H]2CC[C@@H](C(=O)NCc3ccc(Br)cc3)N2C1=O; assay = caspase-8, caspase-3, PARP cleavage, western blot; conditions = 24 h; measurement = onset concentration; value = ≥ 0.3 µM
Compound = CCC(C(=O)O)C1CCC(C)C(C(C)C(O)C(C)C(=O)C(CC)C2OC3(C=CC(=O)C4(CCC(C)(C5CCC(O)(CC)C(C)O5)O4)O3)C(C)CC2C)O1 (stereo not shown); assay = MTT; conditions = with: benzhydroxamic acid 35.5 µM; measurement = combination index; value = 1.7

A few entries again:
Compound = CCCCCCCCCCCCCCCOC(=O)/C=C/c1cc(O)c(O)c(OC)c1; assay = AO-PI flow cytometry; conditions = IC50, 24 h; measurement = early apoptotic cells; value = 39.7%
